Measured values pooled from the literature.
Compare with care: the assays were run in different laboratories. Numbers after ± are the reported error.
Organism: human cytomegalovirus

SMILES | observed | technique | cell line | strain | time | EC50 [µM]
Nc1ccn(C[C@@H](CO)OCP(=O)(O)O)c(=O)n1 | cytopathic effect |  | HEL | AD169 |  | 0.86 ± 0.37
OC[C@H]1O[C@@H](n2cnc3c(O)nc(-n4cc(-c5ccccc5)nn4)nc32)[C@H](O)[C@@H]1O | viral plaque formation |  | HEL | Davis |  | > 50
CCOC(=O)C(C)NP(=O)(COC(CF)CN1CN2C=C(c3ccccc3)NC2=NC1=O)NC(C)C(=O)OCC (stereo not drawn) | cytopathic effect |  | HEL | AD-169 |  | > 100
Nc1ccn(C[C@@H](CO)OCP(=O)(O)O)c(=O)n1 | viral cytopathicity or plaque formation |  |  | AD169 |  | 0.79 ± 0.51
CC(C)[C@H](NC(=O)[C@]1(Cc2ccccc2)CCN1C(=O)OCc1ccccc1)C(N)=O | viral replication |  | HEL fibroblasts | Davis | 168 h | 76
Cc1cn([C@H]2C[C@H](N=[N+]=[N-])[C@@H](COC(=O)Cn3c(=O)ccn(CCCOc4ccc(Br)cc4)c3=O)O2)c(=O)[nH]c1=O | viral replication | plaque reduction | WS1 | AD169 | 5 days | 3.2 ± 0.8
O=c1nc(NC2CC2)c2ncn(CCOCP(=O)(O)O)c2[nH]1 | cytopathic effect |  | HEL | Davis |  | > 100
O=C(O)Cn1c(=O)ccn(CCCCCCCCOc2ccc(Br)cc2)c1=O | viral replication | plaque reduction | WS1 | AD169 | 5 days | 11.9 ± 2.1
Nc1ccn(C[C@@H](CO)OCP(=O)(O)O)c(=O)n1 | cytopathic effect |  | HEL | AD-169 |  | 0.93 ± 0.34
CCCN1C(=O)c2cccc3cc(NC(=O)[C@@H]4C[C@@H](P(=O)(OCC)OCC)N(C)O4)cc(c23)C1=O (racemic) | viral plaque formation | plaque reduction | HEL | Davis |  | 55
NC1=NC(=O)N(C[C@@H](CF)OCP(=O)(O)O)CN1 | cytopathic effect |  | HEL | AD-169 |  | > 100
O=c1[nH]c(=O)c2ncn(C[C@H](CF)OCP(=O)(O)O)c2[nH]1 | cytopathic effect |  | HEL | AD169 |  | > 313
Nc1ncn(C[C@@H](CF)OCP(=O)(O)O)c(=O)n1 | cytopathic effect |  | HEL | AD-169 |  | > 100
CCCCCCCCCCCCCCCCOCCCOP(=O)(O)COCCn1cnc2c(=O)[nH]c(=O)[nH]c21 | cytopathic effect |  | HEL | Davis |  | 0.05 ± 0.05
NC1=NC(=O)N(CC(O)C(F)(F)F)CN1 (stereo not drawn) | cytopathic effect |  | HEL | AD-169 |  | > 100
Cc1cn([C@H]2C[C@H](N=[N+]=[N-])[C@@H](COC(=O)Cn3c(=O)ccn(CCCCCOc4ccc(Br)cc4)c3=O)O2)c(=O)[nH]c1=O | viral replication | plaque reduction | WS1 | AD169 | 5 days | 4.4 ± 2.1
OC[C@H]1O[C@@H](n2cnc3c(NCc4ccccc4)nc(-n4cc(-c5ccccc5)nn4)nc32)[C@H](O)[C@@H]1O | viral plaque formation |  | HEL | AD-169 |  | > 40
Nc1nc(O)c2ncn(COC(CO)CO)c2n1 | cytopathic effect |  | HEL | AD-169 |  | 6.7 ± 2.9
C[C@H](Cn1cnc2c(=O)[nH]c(=O)[nH]c21)OCP(=O)(O)O | cytopathic effect |  | HEL | AD169 |  | > 100
Nc1ccn(C[C@@H](CO)OCP(=O)(O)O)c(=O)n1 | viral plaque formation | plaque reduction | HEL | Davis |  | 1.14
O=C(O)Cn1c(=O)ccn(CCCCCOc2ccc(Br)cc2)c1=O | viral replication | plaque reduction | WS1 | AD169 | 5 days | 104
CCOP(=O)(OCC)[C@@H]1C[C@@H](C(=O)Nc2cc3c4c(cccc4c2)C(=O)N(CCN2CCCC2)C3=O)ON1C (racemic) | viral plaque formation | plaque reduction | HEL | Davis |  | 20
O=c1[nH]c(=O)c2ncn(CC(CO)OCP(=O)(O)O)c2[nH]1 (racemic) | cytopathic effect |  | HEL | AD169 |  | 86.9 ± 21.1
Cc1cn([C@H]2C[C@H](N=[N+]=[N-])[C@@H](COC(=O)Cn3c(=O)ccn(CCCCCCCCOc4ccc(Br)cc4)c3=O)O2)c(=O)[nH]c1=O | viral replication | plaque reduction | WS1 | AD169 | 5 days | 12.2 ± 1.7
